Measurements collected from several papers.
Lines come from different studies, so protocols differ. ± gives the spread as reported.

`CCCCCC(O)C=CC=O` (centres unmarked) has an IC50 of 500 µM (loss of free thiol groups; rat striatal synaptosomes; 15 min).
The IC50 of `CC(=O)O[C@H]1CC[C@]2(C)[C@H]3CC=C4[C@@H]5[C@@H](C)[C@H](C)CC[C@]5(C)CC[C@@]4(C)[C@]3(C)CC[C@H]2C1(C)C` is reported as 286.9 ± 1.35 µg/mL (hydrogen peroxide scavenging, colorimetric).
The IC50 of `CC1=C(C(=O)O)C(c2ccccc2Br)NC(=S)N1` (centres unmarked) is reported as 24.8 ± 1.94 µg/mL (contraction, calcium channel antagonist; isolated rat ileum; added: K+ 80 mM).
For `C=C(NC(=O)C(=C)NC(=O)c1csc(C2=NC3c4csc(n4)C4NC(=O)c5csc(n5)C(C(C)(O)C(C)O)NC(=O)C5CSC(=N5)C(=CC)NC(=O)C(C(C)O)NC(=O)c5csc(n5)C3(CC2)NC(=O)C(C)NC(=O)C(=C)NC(=O)C(C(C)C)NC2C=Cc3c(C(C)O)cc(nc3C2O)C(=O)OC4C)n1)C(N)=O` (centres unmarked), “IC50 fold change” read ≥ 5 fold (protein synthesis, inhibitor, coupled transcription-translation; Escherichia coli S30 extract; reference: thiostrepton A).
`CCCCn1cc(C(=O)O)c(=O)c2cc(F)c(Nc3ccccc3Cl)c(N)c21` gave an IC50 of 36.25 ± 0.21 µg/mL (DPPH radical scavenging; 30 min).
`C[C@@H](O)[C@H](NC(=O)[C@H](CCCCN)NC(=O)COCCN)C(=O)N[C@@H](CCCNC(=N)N)C(=O)NC(C)(C)C(=O)N[C@@H](CCCNC(=N)N)C(=O)NC(C)(C)C(=O)N[C@H](C(=O)N[C@@H](CO)C(=O)N[C@@H](Cc1c[nH]cn1)C(=O)N[C@@H](Cc1ccc(O)cc1)C(=O)NCC(=O)O)[C@@H](C)O` gave an IC50 of 8 µM (platelet aggregation; human whole blood; added: collagen I).
`CC[C@H](C)[C@H](NC(=O)[C@H](CCCNC(=N)N)NC(=O)[C@@H](N)CCCNC(=N)N)C(=O)N[C@@H](CCCNC(=N)N)C(=O)N[C@@H](Cc1ccccc1)C(=O)N[C@@H](CCCNC(=N)N)C(=O)N1CCC[C@H]1C(=O)N1CCC[C@H]1C(=O)N[C@@H](Cc1ccc(O)cc1)C(=O)N[C@@H](CC(C)C)C(=O)N1CCC[C@H]1C(=O)N[C@@H](CCCNC(=N)N)C(=O)N1CCC[C@H]1C(=O)NCC(=O)N[C@@H](CCCNC(=N)N)C(=O)N[C@@H](CCCNC(=N)N)C(=O)N1CCC[C@H]1C(=O)N[C@@H](CCCNC(=N)N)C(=O)N[C@@H](Cc1ccccc1)C(=O)N1CCC[C@H]1C(=O)N1CCC[C@H]1C(=O)N1CCC[C@H]1C(=O)N[C@@H](Cc1ccccc1)C(=O)N1CCC[C@H]1C(=O)N[C@H](C(=O)N1CCC[C@H]1C(=O)N[C@@H](CCCNC(=N)N)C(=O)N[C@H](C(=O)N1CCC[C@H]1C(=O)N[C@@H](CCCNC(=N)N)C(=O)N[C@H](C(=O)N1CCC[C@H]1C(=O)O)[C@@H](C)CC)[C@@H](C)CC)[C@@H](C)CC` gave an IC50 of < 5 µM (coupled transcription/translation, firefly luciferase reporter; Escherichia coli lysate; 1 h, 30 °C).
With `CCCCn1cc(C(=O)O)c(=O)c2cc(F)c(Nc3cccc(Cl)c3)c(N)c21` the IC50 was 44.4 ± 1.74 µg/mL (DPPH radical scavenging; 30 min).
`CC1=C(C(=O)Nc2ccc(F)cc2)C(c2ccccc2Cl)NC(=S)N1` (centres unmarked) has an IC50 of 22.6 ± 1.99 µg/mL (contraction, calcium channel antagonist; isolated rat ileum; added: K+ 80 mM).
With `C=C(NC(=O)C(=C)NC(=O)c1csc(C2=NC3c4csc(n4)C4NC(=O)c5csc(n5)C(C(C)(O)C(C)O)NC(=O)C5CSC(=N5)C(=CC)NC(=O)C(C(C)O)NC(=O)c5csc(n5)C3(CC2)NC(=O)C(C)NC(=O)C(=C)NC(=O)C(CCSC)NC(=O)C(C(C)CC)NC2C=Cc3c(C(C)O)cc(nc3C2O)C(=O)OC4C)n1)C(N)=O` (centres unmarked) the IC50 was 0.33 ± 0.03 µM (protein synthesis, coupled transcription-translation, refers to: luciferase; Escherichia coli S30 extract; 1 h, 37 °C).
`CONC(=O)[C@H]1[C@@H](O)[C@@]2(O)c3c(OC)cc(OC)cc3O[C@@]2(c2ccc(OC)cc2)[C@@H]1c1ccccc1` has an IC50 of 0.054 ± 0.004 µM (cap-dependent translation, FLuc reporter; Krebs-2 cell extract).

Excerpt of the above:
`CCCCn1cc(C(=O)O)c(=O)c2cc(F)c(Nc3ccccc3Cl)c(N)c21` gave an IC50 of 36.25 ± 0.21 µg/mL (DPPH radical scavenging; 30 min).
